# Results collected from several papers.
# A part holds a random share of what one study measured. Changes are numbered by the printed parent chain.

# Set 1
# Target: Ras GTPase-activating protein-binding protein 1, C-terminal RGG region (G3BP1, Homo sapiens, UniProt Q13283)
# Chain of UniProt Q13283 (whole entry, looked up): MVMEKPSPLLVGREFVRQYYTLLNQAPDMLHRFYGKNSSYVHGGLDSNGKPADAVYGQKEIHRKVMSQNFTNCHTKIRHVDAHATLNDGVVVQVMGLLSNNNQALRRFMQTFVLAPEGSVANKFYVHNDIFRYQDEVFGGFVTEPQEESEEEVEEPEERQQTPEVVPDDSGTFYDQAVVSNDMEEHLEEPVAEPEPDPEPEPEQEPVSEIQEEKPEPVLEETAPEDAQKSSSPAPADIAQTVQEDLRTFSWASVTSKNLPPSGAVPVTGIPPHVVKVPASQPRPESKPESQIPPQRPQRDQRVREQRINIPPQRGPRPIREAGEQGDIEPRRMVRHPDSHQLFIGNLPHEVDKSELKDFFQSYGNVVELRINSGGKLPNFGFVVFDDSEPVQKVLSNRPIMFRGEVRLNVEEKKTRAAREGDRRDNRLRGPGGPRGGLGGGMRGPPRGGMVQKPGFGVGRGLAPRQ
# Technique: RNA Bind-n-Seq
# Form: RNA
# Sample: in vitro
# Concentration: 1 µM
# Notes: whole 134-nt RNA, ends assumed
# Together with: 150 mM KCl
# Relative to: input library
# Direction: higher = stronger binding
Sequence,log2 enrichment
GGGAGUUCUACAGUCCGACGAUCUCAAGUCCUGUGCUACACAUCGUAUGUACCGAAUCGGGGAAAGGAAAGGAAAGGAAAGUAUUAUGUUACGCCGUUCGGAUCUGCACUUCCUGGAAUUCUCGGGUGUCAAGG,-1.61
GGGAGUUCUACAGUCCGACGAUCUUCCUCAAGUCCUGUGCUACACAUCGUAUGUACCGAAUCGGGAGGAGGAGGAAAGUAUUAUGUUACGCCGUUCGGAUCUGCACUUCCAGCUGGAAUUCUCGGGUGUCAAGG,-1.26
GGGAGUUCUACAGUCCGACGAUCCACAGACAACACGCACCCACACAGACACAGAGGGAAGGGGUUGGGAUGGGGACAGGGUGCCCAGCAGGGCGGGGUAGGACCCCAGCCCCUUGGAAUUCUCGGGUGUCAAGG,-0.289
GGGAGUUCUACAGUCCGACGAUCCACAGACAACACGCACCCACACAGUCACAGAGGGAAGGGGUUGGGAUGGGGACAGGGUGCACAGCAGGGCGGGGUAGGACCCCAGCCCCUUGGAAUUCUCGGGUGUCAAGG,-0.518
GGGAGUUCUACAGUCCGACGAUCAAGUCCUGUGCUACACAUCGUAUGUACCGAAUCGGGAAAGGGAAAAAAAGGGAGGGAAAGUAUUAUGUUACGCCGUUCGGAUCUGCACUUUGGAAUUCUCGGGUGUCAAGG,0.851
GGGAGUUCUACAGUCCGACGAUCUACCCUCGUGCCCCUGUUUUUCCUGGCCGUGGUAGUUACUCAAACAGAGGGAACUACAACAGAGGUGGAAUGCCCAACAGAGGGAACUACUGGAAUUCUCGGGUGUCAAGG,-1.46
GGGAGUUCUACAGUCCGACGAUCCACAGACAACACGCACCCACACAGACACAGAGGGAAGGGGUUGGGAUGGGGACAGGGUGCACAGCAGGGCGGGGGAGGACCCCAGCCCCUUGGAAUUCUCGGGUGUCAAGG,-0.106
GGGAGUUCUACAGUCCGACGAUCCUCAAGUCCUGUGCUACACAUCGUAUGUACCGAAUCGGUUUGGAAAAAGGAGGAAAGUAUUAUGUUACGCCGUUCGGAUCUGCACUUCCAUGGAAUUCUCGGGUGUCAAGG,-1.23
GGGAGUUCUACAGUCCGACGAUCGUCCUGUGCUACACAUCGUAUGUACCGAAUCGGGAAAAAAAGGGAAAAAAAGGGUGGGAAAGUAUUAUGUUACGCCGUUCGGAUCUGCACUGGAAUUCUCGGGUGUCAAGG,0.167

# Set 2
# Target: RNA binding protein fox-1 homolog 2, RRM domain, GST-SBP tag (RBFOX2, Homo sapiens, UniProt O43251-10, residues 100-194)
# Technique: RNA Bind-n-Seq
# Form: RNA
# Sample: in vitro
# Concentration: 365 nM
# Notes: natural RNA segment, single round, ends assumed
# Relative to: no-protein control
# Direction: higher = stronger binding
# Target sequence (chain): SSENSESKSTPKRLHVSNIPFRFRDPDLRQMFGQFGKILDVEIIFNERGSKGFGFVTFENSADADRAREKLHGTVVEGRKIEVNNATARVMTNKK
Sequence,RBNS enrichment (R)
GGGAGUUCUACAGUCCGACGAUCACCCACAGAUGGCCCUGGGAAUCAAUUCCUCAGGAAUUGCCCUCAAGAACUCUGCUUCUUGCUUUGCAGAGUGCCAUGGUCAUGUCAUUCUGAGGUCACAUAACACAUAAUGGAAUUCUCGGGUGCCAA,0.192
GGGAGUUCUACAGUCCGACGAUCGGGUAGUGGGAGAGUAUAAGUGACUUGAGACAGAGUGUCCUUGCUCAGAAAACUGUGAAGCAGGGGUCUUGUUAGUUACAAAGCCAGUCCUAGUUGCAUGUCCAAGGGGGUGGAAUUCUCGGGUGCCAA,11.1
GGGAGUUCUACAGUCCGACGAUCCAAGGCUGACUCGCUUUCACCAGGGCCACCAGGGCCAUCCAGUGUUGUUUAAUUACAGUCGGAAAGACUUAAGGUUUUUCUUUUAAUUUAAUUUAUUCCCUGACAUUGCUUGGAAUUCUCGGGUGCCAA,0.399
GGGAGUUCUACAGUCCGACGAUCAAUCGCCCAACACUCCUGCACAUCAGCAGCACCAGGCCCGGGAGUGCCACGAGUGUUGAACCUCAUCCCUUCCUGUGUCCUGGGCUGAGUGACCAGGUCAGUGGCCCUGCUGGAAUUCUCGGGUGCCAA,0.317
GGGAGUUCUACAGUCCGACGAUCUACAGUACCAAAUGAUUGACUCAGGAUUGUUUUUCCCAUAUUGAUAUGCUGGCAAUAUAGGAUGGUAUGUAAUGGACAGAACUGAUGCAGAUGGUUGAAUGCGCUUGUACUGGAAUUCUCGGGUGCCAA,13.8
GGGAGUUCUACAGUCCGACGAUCGACCAAGCUGUAGCCUCCACUGGCCCCAUCACUGCCAACUGCAGGGGGCCCCUCGGGCCUCACUUGCCCUGAGCCCAGGAGUCCAAGGGCAGGGUGGGUCCAGCCUUGAGUGGAAUUCUCGGGUGCCAA,0.558
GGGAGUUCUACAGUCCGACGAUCAUGUGCUAAGUUAGGGAUUGGAGGGGCGUGCAUUUACAUGGGAAAGUAAUGCUAAUUAGAAAUCAGUUGGACUUCAACAUUCUCAAGUACUUCCACAAAGCAUCCCUUGGUGGAAUUCUCGGGUGCCAA,1.24
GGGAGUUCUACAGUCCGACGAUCUCUAUGUUACCCAUCUGUGUCUCCUGUGCAGAAGGAGAGGAAGGGGCAUUAAGAGAUGAAGGGUGAUUAUGUAUUACUUAUCCAUUUCUGAAUAAACAUUUGUUAUUCCUUGGAAUUCUCGGGUGCCAA,0.633

# Set 3
# Target: Histone acetyltransferase KAT6A, both winged helices, GST fusion (KAT6A, Homo sapiens, UniProt Q92794, residues 1-181)
# Technique: protein binding microarray
# Form: double-stranded DNA, one strand shown
# Sample: in vitro
# Concentration: not given
# Notes: 8-mer, flanks averaged, mean of 2 arrays, mostly near background
# Relative to: not given
# Direction: higher = stronger binding
# Target sequence (chain): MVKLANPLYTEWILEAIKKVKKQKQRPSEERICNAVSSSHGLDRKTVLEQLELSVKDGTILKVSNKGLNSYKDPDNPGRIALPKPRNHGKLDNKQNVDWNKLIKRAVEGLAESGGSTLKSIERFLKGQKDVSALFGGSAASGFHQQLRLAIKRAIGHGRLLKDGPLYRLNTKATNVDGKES
Sequence,E-score
AACACGCA,0.142
GCGCAGAC,0.229
TAGACATA,-0.0419
AGCCTCGA,-0.166
GATCCGAC,0.16
GGGAACAA,0.016
CAAAGATC,0.0261
TGAGGGAA,-0.115
GCCCAATA,-0.121
ACGTTATG,0.0243
CTGTACAA,0.0294
CTTCTTCA,-0.0204
AGCCGAAC,0.0667
CTACGTTA,-0.00932
ATTCGAGG,-0.191
GCATTTCC,0.0117
GTCGCCCA,-0.0168
GAGTAGCC,-0.0441

# Set 4
# Target: CCND2, cyclin fold, Cln2 fusion (human)
# Technique: yeast growth competition, sequencing
# Sample: yeast
# Notes: weak parent motif
# Relative to: not given
# Direction: higher = stronger binding
# Starting sequence: SCAPER docking peptide (human); SNARRSLNFGGST
Variant,normalised enrichment score
SNARRSLYFGGST [N8Y],0.125
SNARKSLNFGGST [R5K],-0.095
SNARRSLNFGGWT [S12W],-0.0372
SNARRSLNFGGVT [S12V],0.274
SNARRSLNFGGGT [S12G],0.578
SNARRSYNFGGST [L7Y],0.221
SNARRSLNFGAST [G11A],0.307
SNARRSLNFGGSL [T13L],0.634
SNATRSLNFGGST [R4T],0.226
SNARRSLNAGGST [F9A],-0.0204
SNARRSLEFGGST [N8E],0.28

# Set 5
# Target: Interferon regulatory factor 3, full length, phosphomimetic (IRF3, Homo sapiens, UniProt Q14653, residues 1-427, S386D/S396D/S398D/S402D/T404D/S405D)
# Technique: protein-binding microarray
# Form: double-stranded DNA, one strand shown
# Sample: in vitro
# Concentration: 2540 nM top
# Notes: 60-bp whole probe
# Together with: salmon DNA 0.4 mg/ml
# Relative to: random background probes
# Direction: higher = stronger binding
# All sequences stand within: GCCTAGCAC … GTCTTGATTCGCTTGACGCTGCTG
# Residues (chain): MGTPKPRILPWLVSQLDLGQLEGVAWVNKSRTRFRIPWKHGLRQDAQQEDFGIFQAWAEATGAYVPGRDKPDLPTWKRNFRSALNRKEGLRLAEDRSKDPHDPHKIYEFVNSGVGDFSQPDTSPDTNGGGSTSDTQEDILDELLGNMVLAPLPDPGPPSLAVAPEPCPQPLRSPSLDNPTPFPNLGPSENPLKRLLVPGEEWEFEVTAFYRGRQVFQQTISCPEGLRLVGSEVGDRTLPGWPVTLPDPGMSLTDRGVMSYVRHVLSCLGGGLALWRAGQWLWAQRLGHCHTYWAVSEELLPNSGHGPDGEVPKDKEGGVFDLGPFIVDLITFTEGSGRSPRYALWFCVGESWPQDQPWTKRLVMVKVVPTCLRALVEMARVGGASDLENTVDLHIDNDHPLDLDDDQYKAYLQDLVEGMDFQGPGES
Sequence,fitted relative affinity [z-score]
TTAGATATCAGTCTCCATTAGTGCTAG,1.87
TCAGTTTCCAGTATATTACTGTGCTAG,4.98
GACGAACTGGGGTATCGAGTCGTGCTA,-0.281
TTAGGTTTCCTAGTGCTTTAGTGCTAG,4.94
GACGGACTGCGACTGCTGACGTGCTAG,-0.893
GACGGTATCGACTATCCGGACGTGCTA,0.977
GACGAACTGAGTAGCGAGACGTGCTAG,-0.232
TCAGTAATCGAAATCTTACTGTGCTAG,0.102
GACGGTTACCTTATCCTGACGTGCTAG,3.97
TAAGGACTGGACTATCGGTTAGTGCTA,-0.516

# For quick reference, copied from above (set 1):
Sequence,log2 enrichment
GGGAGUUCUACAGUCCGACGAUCUCAAGUCCUGUGCUACACAUCGUAUGUACCGAAUCGGGGAAAGGAAAGGAAAGGAAAGUAUUAUGUUACGCCGUUCGGAUCUGCACUUCCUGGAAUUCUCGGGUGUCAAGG,-1.61
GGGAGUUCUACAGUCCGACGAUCUUCCUCAAGUCCUGUGCUACACAUCGUAUGUACCGAAUCGGGAGGAGGAGGAAAGUAUUAUGUUACGCCGUUCGGAUCUGCACUUCCAGCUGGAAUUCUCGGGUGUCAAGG,-1.26
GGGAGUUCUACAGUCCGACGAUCCACAGACAACACGCACCCACACAGACACAGAGGGAAGGGGUUGGGAUGGGGACAGGGUGCCCAGCAGGGCGGGGUAGGACCCCAGCCCCUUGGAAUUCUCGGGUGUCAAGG,-0.289
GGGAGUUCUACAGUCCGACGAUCCACAGACAACACGCACCCACACAGUCACAGAGGGAAGGGGUUGGGAUGGGGACAGGGUGCACAGCAGGGCGGGGUAGGACCCCAGCCCCUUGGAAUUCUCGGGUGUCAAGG,-0.518
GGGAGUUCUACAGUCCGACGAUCAAGUCCUGUGCUACACAUCGUAUGUACCGAAUCGGGAAAGGGAAAAAAAGGGAGGGAAAGUAUUAUGUUACGCCGUUCGGAUCUGCACUUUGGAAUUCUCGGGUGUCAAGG,0.851
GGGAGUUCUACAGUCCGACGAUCUACCCUCGUGCCCCUGUUUUUCCUGGCCGUGGUAGUUACUCAAACAGAGGGAACUACAACAGAGGUGGAAUGCCCAACAGAGGGAACUACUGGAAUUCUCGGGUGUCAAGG,-1.46
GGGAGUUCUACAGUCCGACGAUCCACAGACAACACGCACCCACACAGACACAGAGGGAAGGGGUUGGGAUGGGGACAGGGUGCACAGCAGGGCGGGGGAGGACCCCAGCCCCUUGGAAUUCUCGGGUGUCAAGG,-0.106
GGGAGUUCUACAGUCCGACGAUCCUCAAGUCCUGUGCUACACAUCGUAUGUACCGAAUCGGUUUGGAAAAAGGAGGAAAGUAUUAUGUUACGCCGUUCGGAUCUGCACUUCCAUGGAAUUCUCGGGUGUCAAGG,-1.23
